Experimental data gathered from unrelated publications.
Lines come from different studies, so protocols differ. Values joined by “and” are separate records of one study, mostly repeats; a detail may differ. ± gives the spread as reported.
F2: Prothrombin (F2, Homo sapiens, UniProt P00734)
Carbonic anhydrase: Carbonic anhydrase (Vibrio cholerae serotype O1, UniProt Q9KMP6)

CC[C@H](C)[C@H](NC(=O)[C@@H]1CCCN1C(=O)[C@H](CCC(=O)O)NC(=O)[C@H](CCSC)NC(=O)CNC(=O)[C@H](CC(N)=O)NC(=O)CNC(=O)CNC(=O)[C@H](CCC(=O)O)NC(=O)CNC(=O)[C@H](CCCNC(=N)N)NC(=O)[C@H](CCC(N)=O)NC(=O)[C@H](Cc1ccc(O)cc1)NC(=O)[C@H](CC(C)C)NC(=O)[C@H](CCCCN)NC(=O)[C@@H]1CCCN1C(=O)[C@H](CCC(N)=O)NC(=O)[C@H](C)NC(=O)[C@@H](NC(=O)[C@H](CCC(=O)O)NC(=O)[C@H](C)NC(=O)[C@H](CCC(=O)O)NC(=O)[C@@H](NC(=O)[C@@H]1CCCN1C(=O)[C@@H](N)CCCCN)C(C)C)C(C)C)C(=O)N1CCC[C@H]1C(=O)N[C@@H](CCC(=O)O)C(=O)N[C@@H](CC(=O)O)C(=O)N[C@@H](Cc1ccc(OS(=O)(=O)O)cc1)C(=O)N[C@@H](CC(C)C)C(=O)N[C@@H](CC(N)=O)C(=O)N[C@@H](CCC(=O)O)C(=O)N[C@@H](C)C(=O)N[C@@H](CC(C)C)C(=O)N[C@@H](CC(N)=O)C(=O)N[C@@H](C)C(=O)O  Ki (F2; enzyme activity, inhibitor, absorbance; pH 8): 0.01 nM
O=C1CCCCO1  Ki (Carbonic anhydrase; enzyme activity, inhibitor, stopped-flow): 44000 nM
CC(C)(C)C(=O)OCOP(=O)(OCOC(=O)C(C)(C)C)C1CCCN(O)C1=O (stereo not shown)  log TGI (EKVX): -4.9 log M
COc1ccccc1-c1n[nH]c2nc(NC3CCN(C(=O)Cc4ccc(F)cc4F)CC3)ncc12  relative abundance (bead binding, competition bead pull-down, item: LINJ.36.0190; Leishmania donovani extract; 10 µM; reference: vehicle): 0.93
CCCCCCC(=O)N[C@H]1CCOC1=O  Ki (Carbonic anhydrase; enzyme activity, inhibitor, stopped-flow): > 100000 nM
CC[C@H](C)[C@H](NC(=O)[C@@H]1CCCN1C(=O)[C@H](CCC(=O)O)NC(=O)[C@H](CCSC)NC(=O)CNC(=O)[C@H](CC(N)=O)NC(=O)CNC(=O)CNC(=O)[C@H](CCC(=O)O)NC(=O)CNC(=O)[C@H](CCCNC(=N)N)NC(=O)[C@H](CCC(N)=O)NC(=O)[C@H](Cc1ccc(O)cc1)NC(=O)[C@H](CC(C)C)NC(=O)[C@H](CCCCN)NC(=O)[C@@H]1CCCN1C(=O)[C@H](CCC(N)=O)NC(=O)[C@H](C)NC(=O)[C@@H](NC(=O)[C@H](CCC(=O)O)NC(=O)[C@H](C)NC(=O)[C@H](CCC(=O)O)NC(=O)[C@@H](NC(=O)[C@@H]1CCCN1C(=O)[C@@H](N)CCCCN)C(C)C)C(C)C)C(=O)N1CCC[C@H]1C(=O)N[C@@H](CCC(=O)O)C(=O)N[C@@H](CC(=O)O)C(=O)N[C@@H](Cc1ccc(O)cc1)C(=O)N[C@@H](CC(C)C)C(=O)N[C@@H](CC(N)=O)C(=O)N[C@@H](CCC(=O)O)C(=O)N[C@@H](C)C(=O)N[C@@H](CC(C)C)C(=O)N[C@@H](CC(N)=O)C(=O)N[C@@H](C)C(=O)O  Ki (Prothrombin, gamma-thrombin (F2, Homo sapiens, UniProt P00734); pH 8): 56600 ± 1550 nM
O=C1NC2(CC2)COc2ncc(F)cc2[C@H]2COCCN2c2ccn3ncc1c3n2  serum triglycerides (Sprague-Dawley rat, female, serum; oral, 5 mg/kg/day, end of treatment, 4-week subacute toxicity): 0.59 ± 0.21 mmol/L
CCN(CC)C(=O)[C@@H]1C=C2c3cccc4c3c(cn4C(=O)c3ccco3)C[C@H]2N(C)C1  Ki (Alpha-1B adrenergic receptor (ADRA1B, Homo sapiens, UniProt P35368); ligand displacement, radioligand): > 10000 nM
O=C1CCc2c(ccc3ccccc23)O1  Ki (Carbonic anhydrase; enzyme activity, inhibitor, stopped-flow): 14300 nM
CCN(CC)C(=O)c1ccc(C(c2cccc(O)c2)N2CC(C)N(Cc3ccccc3)CC2C)cc1 (stereo not shown)  Ki (Delta-type opioid receptor (OPRD1, Homo sapiens, UniProt P41143, N131S)): 1.94 ± 0.69 nM
CC(C)[C@H]1NC(=O)C[C@H]2/C=C/CCSSC[C@@H](NC1=O)C(=O)N[C@H](Cc1cccc3ccccc13)C(=O)NCC(=O)O2  inhibition (Myosin light chain kinase 2, skeletal/cardiac muscle (MYLK2, Homo sapiens, UniProt Q9H1R3); enzyme activity, inhibitor; 10 µM): -1.7%
CC[C@H](C)[C@H](NC(=O)[C@@H]1CCCN1C(=O)[C@H](CCC(=O)O)NC(=O)[C@H](CCSC)NC(=O)CNC(=O)[C@H](CC(N)=O)NC(=O)CNC(=O)CNC(=O)[C@H](CCC(=O)O)NC(=O)CNC(=O)[C@H](CCCNC(=N)N)NC(=O)[C@H](CCC(N)=O)NC(=O)[C@H](Cc1ccc(O)cc1)NC(=O)[C@H](CC(C)C)NC(=O)[C@H](CCCCN)NC(=O)[C@@H]1CCCN1C(=O)[C@H](CCC(N)=O)NC(=O)[C@H](C)NC(=O)[C@@H](NC(=O)[C@H](CCC(=O)O)NC(=O)[C@H](C)NC(=O)[C@H](CCC(=O)O)NC(=O)[C@@H](NC(=O)[C@@H]1CCCN1C(=O)[C@@H](N)CCCCN)C(C)C)C(C)C)C(=O)N1CCC[C@H]1C(=O)N[C@@H](CCC(=O)O)C(=O)N[C@@H](CC(=O)O)C(=O)N[C@@H](Cc1ccc(O)cc1)C(=O)N[C@@H](CC(C)C)C(=O)N[C@@H](CCC(N)=O)C(=O)O  Ki (F2; enzyme activity, inhibitor, absorbance; pH 8): 0.067 nM
COC(=O)C(=O)[C@H](CC(C)C)NC(=O)[C@H](CCCCN)NC(=O)[C@H](Cc1ccccc1)NC(=O)OCc1ccccc1  Ki (hip1, N-terminally truncated (Mycobacterium tuberculosis, UniProt P9WHR3); inhibitor): 0.089 nM and 0.093 nM and 0.09 nM

For quick reference, copied from above:
CC(C)[C@H]1NC(=O)C[C@H]2/C=C/CCSSC[C@@H](NC1=O)C(=O)N[C@H](Cc1cccc3ccccc13)C(=O)NCC(=O)O2  inhibition (Myosin light chain kinase 2, skeletal/cardiac muscle (MYLK2, Homo sapiens, UniProt Q9H1R3); enzyme activity, inhibitor; 10 µM): -1.7%
CC[C@H](C)[C@H](NC(=O)[C@@H]1CCCN1C(=O)[C@H](CCC(=O)O)NC(=O)[C@H](CCSC)NC(=O)CNC(=O)[C@H](CC(N)=O)NC(=O)CNC(=O)CNC(=O)[C@H](CCC(=O)O)NC(=O)CNC(=O)[C@H](CCCNC(=N)N)NC(=O)[C@H](CCC(N)=O)NC(=O)[C@H](Cc1ccc(O)cc1)NC(=O)[C@H](CC(C)C)NC(=O)[C@H](CCCCN)NC(=O)[C@@H]1CCCN1C(=O)[C@H](CCC(N)=O)NC(=O)[C@H](C)NC(=O)[C@@H](NC(=O)[C@H](CCC(=O)O)NC(=O)[C@H](C)NC(=O)[C@H](CCC(=O)O)NC(=O)[C@@H](NC(=O)[C@@H]1CCCN1C(=O)[C@@H](N)CCCCN)C(C)C)C(C)C)C(=O)N1CCC[C@H]1C(=O)N[C@@H](CCC(=O)O)C(=O)N[C@@H](CC(=O)O)C(=O)N[C@@H](Cc1ccc(O)cc1)C(=O)N[C@@H](CC(C)C)C(=O)N[C@@H](CCC(N)=O)C(=O)O  Ki (F2; enzyme activity, inhibitor, absorbance; pH 8): 0.067 nM
